Measurements pooled from the literature.
“And” joins repeats or separate records; there may be more than shown.
Target: Tyrosine-protein kinase Mer (MERTK, Homo sapiens, UniProt Q12866)
One construct used (Q12866 21-999): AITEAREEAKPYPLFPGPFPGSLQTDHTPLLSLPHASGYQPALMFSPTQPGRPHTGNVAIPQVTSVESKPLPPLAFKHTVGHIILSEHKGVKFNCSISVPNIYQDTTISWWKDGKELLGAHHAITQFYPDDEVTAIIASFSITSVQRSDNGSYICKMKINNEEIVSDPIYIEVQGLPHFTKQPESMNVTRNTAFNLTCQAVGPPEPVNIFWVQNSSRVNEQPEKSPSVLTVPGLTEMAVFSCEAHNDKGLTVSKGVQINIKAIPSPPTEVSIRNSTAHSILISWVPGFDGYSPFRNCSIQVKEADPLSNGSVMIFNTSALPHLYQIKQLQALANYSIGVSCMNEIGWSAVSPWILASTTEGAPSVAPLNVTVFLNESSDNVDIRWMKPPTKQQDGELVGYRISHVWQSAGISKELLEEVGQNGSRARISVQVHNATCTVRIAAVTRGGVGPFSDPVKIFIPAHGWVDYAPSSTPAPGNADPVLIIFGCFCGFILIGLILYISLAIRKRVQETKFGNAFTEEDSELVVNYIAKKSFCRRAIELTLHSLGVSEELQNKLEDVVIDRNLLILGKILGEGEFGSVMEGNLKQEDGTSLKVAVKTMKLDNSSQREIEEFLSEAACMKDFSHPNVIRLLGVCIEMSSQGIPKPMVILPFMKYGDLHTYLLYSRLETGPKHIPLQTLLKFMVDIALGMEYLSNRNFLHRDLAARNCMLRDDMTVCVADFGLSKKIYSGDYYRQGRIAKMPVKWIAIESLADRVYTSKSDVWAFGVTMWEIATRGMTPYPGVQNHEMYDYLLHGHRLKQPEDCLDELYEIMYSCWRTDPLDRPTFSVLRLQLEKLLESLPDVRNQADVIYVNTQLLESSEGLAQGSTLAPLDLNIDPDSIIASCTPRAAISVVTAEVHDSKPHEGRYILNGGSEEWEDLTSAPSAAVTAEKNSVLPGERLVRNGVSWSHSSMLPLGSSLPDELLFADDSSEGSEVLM

For `Cc1ccc(-c2c(/C=C(\C#N)C(=O)NC(C)C)n(CCCO)c3ncnc(N)c23)cc1`, the remaining binding was 100% (cell-free assay, competition with immobilised ligand; 1 µM).
`CCN1CCN(Cc2ccc(C(=O)Nc3ccc(C)c(NCc4cnc5[nH]ccc5c4OC)c3)cc2C(F)(F)F)CC1` has a remaining binding of 46% (binding, competition with immobilised ligand; 1 µM).
`Nc1ncc2c(n1)-c1c([nH]c3ccc(C4=CCOCC4)cc13)CCC2` has a remaining binding of 62% (binding, competition with immobilised ligand; 1 µM).
`COc1cc(Nc2nccc(-c3cnn4nc(OC)ccc34)n2)cc(C(F)(F)F)c1` has a remaining binding of 100% (binding, competition with immobilised ligand; 1 µM).
`C[C@H]1CN(C(=O)c2cn(-c3ccnc(N)n3)c3cc(C#CC4(O)CCCCC4)ccc23)CCN1` gave an inhibition of 1% (enzyme activity, inhibitor, FRET; 1 µM).
The inhibition of `NC(=O)C[C@H]1CCc2sc3ncnc(O[C@H]4CC[C@H](N5CCOCC5)CC4)c3c21` is reported as 21% (enzyme activity, inhibitor; 10 µM).
With `Cc1cc(NC(=O)[C@H](O)c2cc(F)cc(F)c2)ccc1-c1cnc(N)c(C(=O)NC(C)C)c1` the remaining binding was 59% (binding, competition with immobilised ligand; 10 µM).
With `Cc1cccc(O[C@H]2CCC[C@@H](C(C)CNCc3ccncc3)C2)c1` (relative stereo) the inhibition was 5% (enzyme activity, inhibitor; 1 µM).
The inhibition of `CCn1cc(C(=O)O)c(=O)c2c(N)c(F)c(NC3CCCCC3)cc21` is reported as 4% (kinase activity; 0.1 µM, with: ATP at Km).
With `C=CC(=O)Nc1cc(-c2nn(C3CCN(CCNC(=O)[C@H](C)CCC45CC6CC(CC(C6)C4)C5)CC3)c3ncnc(N)c23)ccc1Oc1ccccc1` the inhibition was -19.5% (inhibitor, KiNativ profiling; biochemical; 2 µM).
`C=CC(=O)N1CCCC(n2c(=O)c3ncccc3n(Cc3ccc(Oc4ccccc4)cc3)c2=O)C1` (stereo not shown) has a remaining binding of 76% (cell-free assay, competition with immobilised ligand; 1 µM).
For `CN1CC[C@@H](COc2cnc(C#N)cc2-c2ccn3nc(NC(=O)C4CC4)cc3c2)C1`, the inhibition was 16% (enzyme activity, inhibitor; 1 µM).
The inhibition of `C=CC(=O)Nc1cccc(-c2cnc3[nH]cc(C(=O)NC(C)(C)C)c3n2)c1` is reported as 15% and 12% (kinase activity; 0.1 µM).
`O=C=[N][Ru-4]123([n]4c5ccc(O)cc5c5c6c(c7cc(F)c[n+]1c7c54)C(=O)NC6=O)[S+]1CC[S+]2CC[S+]3CC1` (stereo not shown) has a remaining activity of 19% (enzyme activity; 100 nM, human enzyme, with: 10 µM ATP; baseline: untreated).
The remaining binding of `Cc1cnc2nc1Nc1cccc(c1)COC/C=C/COCc1cc(ccc1OCCN1CCOCC1)N2` is reported as 24% (binding; 0.1 µM).
`CNC(=O)C[C@H](Cc1ccc(C#N)cc1)NC(=O)c1cc(-c2ccc(CN[C@H](C)c3ccc(C)cc3)o2)ccc1Cl` — result for “activity vs control”: 116% (enzyme activity, inhibitor; 1 µM).

Some of these lines once more:
For `Cc1ccc(-c2c(/C=C(\C#N)C(=O)NC(C)C)n(CCCO)c3ncnc(N)c23)cc1`, the remaining binding was 100% (cell-free assay, competition with immobilised ligand; 1 µM).
